Published values collected from several papers.
Lines come from different studies, so protocols differ. ± gives the spread as reported.
blaNDM-1: Metallo-beta-lactamase type 2 (blaNDM-1, Klebsiella pneumoniae, UniProt C7C422)
UniProt C7C422, sequence (whole entry, looked up): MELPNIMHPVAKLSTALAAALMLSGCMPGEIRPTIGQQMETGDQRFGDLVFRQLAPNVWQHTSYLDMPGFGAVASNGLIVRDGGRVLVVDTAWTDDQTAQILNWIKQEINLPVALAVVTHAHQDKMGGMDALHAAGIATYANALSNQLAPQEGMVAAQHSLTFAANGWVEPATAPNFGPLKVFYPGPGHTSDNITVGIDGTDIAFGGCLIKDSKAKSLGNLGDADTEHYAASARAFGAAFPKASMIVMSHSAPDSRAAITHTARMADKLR
MCA2: Metacaspase-2 (MCA2, Trypanosoma brucei brucei, UniProt Q585F3)
UniProt Q585F3, sequence (whole entry, looked up): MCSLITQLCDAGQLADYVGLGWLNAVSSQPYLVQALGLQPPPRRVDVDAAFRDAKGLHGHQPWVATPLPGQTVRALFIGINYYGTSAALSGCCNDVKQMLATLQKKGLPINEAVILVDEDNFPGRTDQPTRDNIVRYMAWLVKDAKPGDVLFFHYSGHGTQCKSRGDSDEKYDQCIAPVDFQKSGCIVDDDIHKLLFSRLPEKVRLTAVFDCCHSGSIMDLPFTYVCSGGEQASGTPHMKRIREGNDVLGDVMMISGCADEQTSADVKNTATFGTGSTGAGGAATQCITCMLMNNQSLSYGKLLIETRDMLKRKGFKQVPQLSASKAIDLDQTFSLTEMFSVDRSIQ
Genome polyprotein NS2B-NS3 protease: Genome polyprotein, NS2B-NS3 protease (ZIKV, UniProt A0A024B7W1)
UniProt A0A024B7W1, sequence (whole entry, looked up): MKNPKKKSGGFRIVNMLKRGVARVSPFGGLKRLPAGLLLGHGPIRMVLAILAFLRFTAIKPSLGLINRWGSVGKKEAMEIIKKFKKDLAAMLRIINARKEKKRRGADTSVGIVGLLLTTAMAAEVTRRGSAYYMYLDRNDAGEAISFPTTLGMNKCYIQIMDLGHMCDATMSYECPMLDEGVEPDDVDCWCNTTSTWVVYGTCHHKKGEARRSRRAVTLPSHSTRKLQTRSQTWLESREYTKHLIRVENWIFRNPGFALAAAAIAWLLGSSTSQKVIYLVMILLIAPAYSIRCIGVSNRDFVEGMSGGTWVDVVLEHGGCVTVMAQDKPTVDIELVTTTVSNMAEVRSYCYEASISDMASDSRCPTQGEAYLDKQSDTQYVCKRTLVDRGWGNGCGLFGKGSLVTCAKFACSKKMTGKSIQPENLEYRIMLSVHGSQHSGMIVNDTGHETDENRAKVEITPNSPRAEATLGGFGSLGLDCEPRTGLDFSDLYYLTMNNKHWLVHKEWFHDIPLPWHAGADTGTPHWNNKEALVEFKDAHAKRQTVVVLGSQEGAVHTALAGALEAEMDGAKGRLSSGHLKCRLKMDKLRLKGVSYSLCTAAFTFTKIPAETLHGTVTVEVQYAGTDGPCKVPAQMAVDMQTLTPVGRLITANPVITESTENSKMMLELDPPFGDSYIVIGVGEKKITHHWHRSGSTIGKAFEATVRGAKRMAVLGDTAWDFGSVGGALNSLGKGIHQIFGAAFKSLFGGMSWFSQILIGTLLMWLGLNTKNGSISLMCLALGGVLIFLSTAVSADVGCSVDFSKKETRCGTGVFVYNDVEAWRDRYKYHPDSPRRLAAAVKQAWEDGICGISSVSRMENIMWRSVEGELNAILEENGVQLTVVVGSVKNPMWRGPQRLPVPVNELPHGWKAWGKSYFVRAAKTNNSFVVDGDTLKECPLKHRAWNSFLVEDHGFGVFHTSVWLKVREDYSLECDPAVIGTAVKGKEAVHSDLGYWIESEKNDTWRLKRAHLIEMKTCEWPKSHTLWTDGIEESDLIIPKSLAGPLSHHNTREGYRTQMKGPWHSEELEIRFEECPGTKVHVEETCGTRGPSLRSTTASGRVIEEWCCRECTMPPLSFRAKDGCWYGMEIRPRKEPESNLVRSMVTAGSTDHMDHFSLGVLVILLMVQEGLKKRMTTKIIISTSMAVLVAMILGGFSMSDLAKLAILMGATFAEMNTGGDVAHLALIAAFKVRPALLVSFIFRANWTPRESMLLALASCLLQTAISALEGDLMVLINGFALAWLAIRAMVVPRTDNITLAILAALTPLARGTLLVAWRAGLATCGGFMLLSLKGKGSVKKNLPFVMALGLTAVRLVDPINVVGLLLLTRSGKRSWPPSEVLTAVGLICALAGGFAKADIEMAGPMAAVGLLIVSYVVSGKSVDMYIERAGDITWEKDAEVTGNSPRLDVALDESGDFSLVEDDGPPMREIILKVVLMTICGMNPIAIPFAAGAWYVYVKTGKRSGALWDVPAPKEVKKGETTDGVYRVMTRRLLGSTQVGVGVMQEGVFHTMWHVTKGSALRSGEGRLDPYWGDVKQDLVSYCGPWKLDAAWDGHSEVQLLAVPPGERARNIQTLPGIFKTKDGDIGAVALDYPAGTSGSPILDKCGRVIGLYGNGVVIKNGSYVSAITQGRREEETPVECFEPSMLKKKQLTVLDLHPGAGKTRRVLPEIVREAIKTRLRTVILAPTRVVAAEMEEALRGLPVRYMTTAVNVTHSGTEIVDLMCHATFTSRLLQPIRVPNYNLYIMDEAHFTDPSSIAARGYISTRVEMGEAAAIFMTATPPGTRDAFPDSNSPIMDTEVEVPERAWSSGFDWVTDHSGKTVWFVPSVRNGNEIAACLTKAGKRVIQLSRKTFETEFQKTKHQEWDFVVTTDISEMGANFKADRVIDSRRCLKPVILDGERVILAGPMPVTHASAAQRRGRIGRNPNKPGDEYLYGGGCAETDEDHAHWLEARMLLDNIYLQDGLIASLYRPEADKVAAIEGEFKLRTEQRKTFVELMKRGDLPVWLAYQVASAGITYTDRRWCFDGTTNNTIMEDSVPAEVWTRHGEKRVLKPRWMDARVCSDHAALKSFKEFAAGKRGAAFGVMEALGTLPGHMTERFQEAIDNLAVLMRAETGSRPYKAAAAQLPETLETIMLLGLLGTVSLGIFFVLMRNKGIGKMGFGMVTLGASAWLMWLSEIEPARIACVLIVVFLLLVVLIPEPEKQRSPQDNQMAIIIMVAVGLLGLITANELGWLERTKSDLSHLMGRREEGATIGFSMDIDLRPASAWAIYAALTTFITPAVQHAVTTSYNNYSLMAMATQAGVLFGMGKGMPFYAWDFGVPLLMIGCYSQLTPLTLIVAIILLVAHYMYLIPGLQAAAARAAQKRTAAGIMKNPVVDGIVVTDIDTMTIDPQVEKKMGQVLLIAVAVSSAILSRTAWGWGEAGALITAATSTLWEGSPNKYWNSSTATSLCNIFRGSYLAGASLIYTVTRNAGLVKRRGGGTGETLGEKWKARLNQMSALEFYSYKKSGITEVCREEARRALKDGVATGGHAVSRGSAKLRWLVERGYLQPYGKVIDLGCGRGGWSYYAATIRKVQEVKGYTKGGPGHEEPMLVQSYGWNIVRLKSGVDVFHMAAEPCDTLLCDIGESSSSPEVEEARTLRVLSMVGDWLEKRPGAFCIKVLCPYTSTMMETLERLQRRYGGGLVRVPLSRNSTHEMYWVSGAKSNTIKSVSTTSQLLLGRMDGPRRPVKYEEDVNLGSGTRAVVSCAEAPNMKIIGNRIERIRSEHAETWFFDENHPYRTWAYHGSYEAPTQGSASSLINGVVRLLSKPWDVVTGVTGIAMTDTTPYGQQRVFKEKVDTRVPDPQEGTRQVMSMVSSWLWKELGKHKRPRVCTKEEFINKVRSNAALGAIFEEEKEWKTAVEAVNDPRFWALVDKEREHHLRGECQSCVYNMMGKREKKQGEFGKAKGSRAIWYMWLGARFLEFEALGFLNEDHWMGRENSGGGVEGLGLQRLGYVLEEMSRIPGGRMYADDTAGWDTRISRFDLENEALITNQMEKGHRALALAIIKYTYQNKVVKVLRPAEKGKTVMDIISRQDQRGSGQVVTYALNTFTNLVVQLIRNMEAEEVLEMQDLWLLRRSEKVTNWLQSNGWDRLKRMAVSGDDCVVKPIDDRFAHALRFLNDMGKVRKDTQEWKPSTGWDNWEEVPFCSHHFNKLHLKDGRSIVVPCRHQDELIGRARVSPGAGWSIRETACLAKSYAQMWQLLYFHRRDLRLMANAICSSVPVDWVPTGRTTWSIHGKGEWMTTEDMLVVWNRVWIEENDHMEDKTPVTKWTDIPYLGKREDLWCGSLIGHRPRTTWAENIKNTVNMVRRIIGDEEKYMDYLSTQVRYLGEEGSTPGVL
Oprm1: Mu-type opioid receptor (Oprm1, Rattus norvegicus, UniProt P33535)
UniProt P33535, sequence (whole entry, looked up): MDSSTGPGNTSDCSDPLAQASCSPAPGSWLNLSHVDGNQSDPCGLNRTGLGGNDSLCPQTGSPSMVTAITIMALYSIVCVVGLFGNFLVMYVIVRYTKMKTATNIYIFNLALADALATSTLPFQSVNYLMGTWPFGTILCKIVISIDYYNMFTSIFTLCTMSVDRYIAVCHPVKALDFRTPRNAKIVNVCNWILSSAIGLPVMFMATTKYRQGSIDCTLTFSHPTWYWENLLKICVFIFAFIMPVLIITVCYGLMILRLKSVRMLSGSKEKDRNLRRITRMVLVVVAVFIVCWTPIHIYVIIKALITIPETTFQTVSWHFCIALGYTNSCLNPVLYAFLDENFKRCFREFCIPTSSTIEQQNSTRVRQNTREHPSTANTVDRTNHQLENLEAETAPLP
HTR2B: 5-hydroxytryptamine receptor 2B (HTR2B, Homo sapiens, UniProt P41595)
UniProt P41595, sequence (whole entry, looked up): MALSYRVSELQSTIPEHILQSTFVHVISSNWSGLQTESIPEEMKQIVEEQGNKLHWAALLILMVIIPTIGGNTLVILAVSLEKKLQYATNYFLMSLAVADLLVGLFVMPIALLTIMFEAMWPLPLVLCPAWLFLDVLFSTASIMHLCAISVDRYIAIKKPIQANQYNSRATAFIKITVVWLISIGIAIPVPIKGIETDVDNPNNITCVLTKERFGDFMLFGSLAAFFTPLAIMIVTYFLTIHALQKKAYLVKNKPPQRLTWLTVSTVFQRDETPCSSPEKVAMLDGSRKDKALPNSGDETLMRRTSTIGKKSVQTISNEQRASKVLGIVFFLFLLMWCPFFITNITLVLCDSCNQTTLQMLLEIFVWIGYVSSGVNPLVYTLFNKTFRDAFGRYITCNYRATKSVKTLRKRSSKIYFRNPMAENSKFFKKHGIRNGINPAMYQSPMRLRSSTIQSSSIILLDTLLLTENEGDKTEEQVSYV
UniProt Q5U3Y7, sequence (whole entry, looked up): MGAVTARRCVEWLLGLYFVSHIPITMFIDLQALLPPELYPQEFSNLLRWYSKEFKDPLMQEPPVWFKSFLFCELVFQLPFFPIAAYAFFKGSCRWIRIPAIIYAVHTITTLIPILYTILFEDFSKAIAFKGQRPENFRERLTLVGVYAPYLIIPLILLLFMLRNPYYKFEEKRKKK

CC[C@H](C)[C@@H]1NC(=O)[C@@H]2CCCN2C(=O)[C@@H](CS)NC(=O)[C@H](CC(C)C)NC(=O)[C@@H](CCCNC(=N)N)NC(=O)[C@@H]([C@H](C)O)NC(=O)C(C)(C)NC(=O)[C@@H]2CCCN2C1=O  Ki (blaNDM-1; enzyme activity, inhibitor; added: nitrocefin 1.5 µM): 15.4 µM
Clc1ccc2sc(C3CCNCC3)nc2c1  Ki (Sodium-dependent serotonin transporter (Slc6a4, Rattus norvegicus, UniProt P31652); ligand displacement, radioligand): 0.336 µM
C[C@H](NC(=O)[C@H](CO)NC(=O)[C@H](CO)NC(=O)[C@H](CCCNC(=N)N)NC(=O)[C@H](CCC(=O)O)NC(=O)[C@H](CCCCN)NC(=O)c1ccccc1N)C(=O)N[C@@H](CCC(N)=O)C(=O)NCCNc1ccc([N+](=O)[O-])cc1[N+](=O)[O-]  Ki (MCA2; enzyme activity, competitive inhibitor; Trypanosoma brucei; added: Z-FR-AMC substrate): 7.8 µM
CC(C)C[C@H](NC(=O)[C@H](CCCCN)NC(=O)[C@H](CCCCN)NC(=O)Cc1cccc(CNC(=O)CNC(=N)N)c1)B(O)O  Ki (Genome polyprotein NS2B-NS3 protease; inhibitor; Zika virus): 0.0114 ± 0.0012 µM
Cc1cc(O)cc(C)c1C[C@H](N)C(=O)N[C@H](CCCNC(=N)N)C(=O)N[C@@H](Cc1ccccc1)C(=O)N[C@@H](CCCCN)C(=O)NCCCCCCCCNC(=O)[C@H](Cc1ccccc1)NC(=O)[C@H](CC1CCCCC1)NC[C@@H]1Cc2ccccc2CN1C(=O)[C@@H](N)Cc1ccc(O)cc1  Ki (Oprm1; ligand displacement, radioligand; cell membranes): 0.0287 µM
CC(C)[C@@H](Nc1nc(Cl)nc2c1ncn2[C@H]1[C@H](O)[C@H](O)[C@]2(CF)C[C@H]12)C1CC1  Ki (HTR2B; ligand displacement, radioligand): 0.934 µM
C[C@H](NC(=O)[C@H](C)NC(=O)[C@H](CCCCN)NC(=O)c1ccccc1N)C(=O)N[C@@H](CO)C(=O)N[C@@H](CO)C(=O)N[C@@H](C)C(=O)N[C@@H](CCC(N)=O)C(=O)NCCNc1ccc([N+](=O)[O-])cc1[N+](=O)[O-]  Ki (MCA2; enzyme activity, competitive inhibitor; Trypanosoma brucei; added: Z-FR-AMC substrate): 7.5 µM
CC(C)CCNC(=O)[C@H](CCCCN)NC(=O)[C@H](CCCCN)NC(=O)Cc1cccc(CNC(=O)[C@@H](C)NC(=N)N)c1  Ki (Genome polyprotein NS2B-NS3 protease; inhibitor; Zika virus): 1.64 ± 0.07 µM
CC[C@H](C)[C@@H]1NC(=O)[C@@H]2CCCN2C(=O)[C@@H](CS)NC(=O)[C@H](CC(C)C)NC(=O)[C@@H](CCCNC(=N)N)NC(=O)[C@@H](CCCNC(=N)N)NC(=O)C(C)(C)NC(=O)[C@@H]2CCCN2C1=O  Ki (blaNDM-1; enzyme activity, inhibitor; added: nitrocefin 1.5 µM): 1.94 µM
NC(=O)[C@@H]1CC/C=C\C[C@@H](NC(=O)[C@@H](N)Cc2ccc(O)cc2)C(=O)N[C@@H](Cc2ccccc2)C(=O)N[C@@H](Cc2ccccc2)C(=O)N1  Ki (Oprm1; ligand displacement, radioligand; cell membranes): 0.000281 µM
CC(=O)N[C@@H](CC(C)C)C(=O)N[C@@H](CC(C)C)C(=O)N[C@@H](CC(C)C)C(=O)N[C@@H](CC(C)C)C(=O)N[C@@H](CC(C)C)C(=O)N[C@@H](CCCN=C(N)N)C(=O)N[C@H](C(=O)N[C@@H](CCCCN)C(=O)N[C@@H](CCCN=C(N)N)C(N)=O)C(C)C  Ki (Proprotein convertase subtilisin/kexin type 7 (Homo sapiens, UniProt Q16549); enzyme activity, inhibitor): 1.8 µM
C[C@H](NC(=O)[C@H](CCCCN)NC(=O)c1ccccc1N)C(=O)N[C@@H](CCCNC(=N)N)C(=O)N[C@@H](CO)C(=O)N[C@@H](CO)C(=O)N[C@@H](Cc1ccccc1)C(=O)N[C@@H](CCC(N)=O)C(=O)NCCNc1ccc([N+](=O)[O-])cc1[N+](=O)[O-]  Ki (MCA2; substrate; pH 7.4, 25 °C, added: 1 mM CaCl2): 3.7 µM
Cc1cc(O)cc(C)c1C[C@H](N)C(=O)N[C@H](CCCNC(=N)N)C(=O)N[C@@H](Cc1ccccc1)C(=O)N[C@@H](CCCCN)C(=O)NCCCCCC(=O)N[C@@H](CCCCNC(=O)CN1CCN(CC(=O)O)CCN(CC(=O)O)CCN(CC(=O)O)CC1)C(N)=O  Ki (Delta-type opioid receptor (Oprd1, Mus musculus, UniProt P32300); ligand displacement, radioligand; cell membranes): 0.0431 µM
CCCC[C@@H]1NC(=O)[C@@H](CCC(N)=O)NC(=O)[C@H]2CCCN2C(=O)[C@H]([C@@H](C)CC)NC(=O)[C@@H]2C[C@@H](O)CN2C(=O)[C@H](Cc2ccccc2CN)NC(=O)[C@@H]2CCCN2C(=O)[C@@H](CS)NC1=O  Ki (blaNDM-1; enzyme activity, inhibitor; added: nitrocefin 1.5 µM): 34.4 µM
C[C@H](NC(=O)[C@H](CCC(=O)O)NC(=O)c1ccccc1N)C(=O)N[C@@H](CCCNC(=N)N)C(=O)N[C@@H](CO)C(=O)N[C@@H](CO)C(=O)N[C@@H](C)C(=O)N[C@@H](CCC(N)=O)C(=O)NCCNc1ccc([N+](=O)[O-])cc1[N+](=O)[O-]  Ki (MCA2; enzyme activity, competitive inhibitor; Trypanosoma brucei; added: Z-FR-AMC substrate): 3.8 µM
OB(O)c1ccc(C(F)(F)F)s1  Ki (Uncharacterized hydrolase SAUSA300_2518 (Staphylococcus aureus, UniProt Q2FDS6); enzyme activity, inhibitor): 0.179 µM
O=C1c2ccccc2CCCN1CCCCN1CCN(c2cccc(Cl)c2Cl)CC1  Ki (HTR2B; ligand displacement, radioligand): 0.0006 µM
CC(C)c1cc2c(c(O)c1O)C1(C=O)CCCC(C)(C)C1CC2 (centres unmarked)  Ki (Catenin beta-1, armadillo repeat domain (Mus musculus, UniProt Q02248); binding to HD2, inhibitor, ELISA; added: His-HD2 with GST-ARD): 4.8 ± 1 µM
OC1Cc2ccccc2CC1N1CCC2(C=Cc3cc(Br)ccc32)CC1 (racemic)  Ki (Sigma intracellular receptor 2 (Tmem97, Rattus norvegicus, UniProt Q5U3Y7); binding, radioligand displacement; rat liver membranes; added: [3H]DTG, dextrallorphan 1 µM masking): 0.49 ± 0.35 µM
CC1(C)NC(=O)[C@@H](CC(=O)O)NC(=O)[C@H](CCC(=O)O)NC(=O)[C@H](CCCN)NC(=O)[C@H](C(c2ccccc2)c2ccccc2)NC(=O)[C@@H]2CCCN2C(=O)[C@H]2CCCN2C(=O)[C@H](CC(N)=O)NC1=O  Ki (blaNDM-1; enzyme activity, inhibitor; added: nitrocefin 1.5 µM): 267 µM
C[C@H](NC(=O)[C@H](CC(=O)O)NC(=O)c1ccccc1N)C(=O)N[C@@H](CCCNC(=N)N)C(=O)N[C@@H](CO)C(=O)N[C@@H](CO)C(=O)N[C@@H](C)C(=O)N[C@@H](CCC(N)=O)C(=O)NCCNc1ccc([N+](=O)[O-])cc1[N+](=O)[O-]  Ki (MCA2; enzyme activity, competitive inhibitor; Trypanosoma brucei; added: Z-FR-AMC substrate): 4.2 µM
COc1cc(C[C@H](C)[C@H](C)Cc2ccc3c(c2)OCO3)ccc1O  Ki (Liver carboxylesterase 1 (CES1, Homo sapiens, UniProt P23141); enzyme activity, inhibitor): 0.564 µM
CC(C)C[C@H](NC(=O)[C@H](CCCCN)NC(=O)[C@H](CCCCN)NC(=O)Cc1cccc(CNC(=O)[C@@H](C)NC(=N)N)c1)C(=O)O  Ki (Genome polyprotein NS2B-NS3 protease; NS2B-NS3 protease activity, inhibitor): > 1 µM
CC[C@H](C)[C@@H]1NC(=O)[C@@H]2CCCN2C(=O)[C@@H](CS)NC(=O)[C@H](Cc2ccc(O)cc2)NC(=O)[C@@H](CCCNC(=N)N)NC(=O)[C@@H]([C@H](C)O)NC(=O)[C@H](CCC(=O)O)NC(=O)[C@@H]2CCCN2C1=O  Ki (blaNDM-1; enzyme activity, inhibitor; added: nitrocefin 1.5 µM): 6.49 µM
CC[C@H](C)[C@H](NC(=O)[C@H](CCCNC(=N)N)NC(=O)[C@H](C)NC(=O)[C@H](CCCCN)NC(=O)c1ccccc1N)C(=O)N[C@@H](CO)C(=O)N[C@@H](C)C(=O)N[C@@H](CCC(N)=O)C(=O)NCCNc1ccc([N+](=O)[O-])cc1[N+](=O)[O-]  Ki (MCA2; enzyme activity, competitive inhibitor; Trypanosoma brucei; added: Z-FR-AMC substrate): 7.8 µM
Cc1cc(O)cc(C)c1C[C@H](N)C(=O)N[C@H](CCCNC(=N)N)C(=O)N[C@@H](Cc1ccccc1)C(=O)N(C)CC(=O)N(C)Cc1cc(C(F)(F)F)cc(C(F)(F)F)c1  Ki (Delta-type opioid receptor (OPRD1, Homo sapiens, UniProt P41143, E323K)): 0.00619 ± 0.00056 µM

A few entries again:
OB(O)c1ccc(C(F)(F)F)s1  Ki (Uncharacterized hydrolase SAUSA300_2518 (Staphylococcus aureus, UniProt Q2FDS6); enzyme activity, inhibitor): 0.179 µM
Cc1cc(O)cc(C)c1C[C@H](N)C(=O)N[C@H](CCCNC(=N)N)C(=O)N[C@@H](Cc1ccccc1)C(=O)N[C@@H](CCCCN)C(=O)NCCCCCC(=O)N[C@@H](CCCCNC(=O)CN1CCN(CC(=O)O)CCN(CC(=O)O)CCN(CC(=O)O)CC1)C(N)=O  Ki (Delta-type opioid receptor (Oprd1, Mus musculus, UniProt P32300); ligand displacement, radioligand; cell membranes): 0.0431 µM
